Experimental data pooled from the literature.
Numbered parts are unrelated; each lists some results of a single study. Substitutions count along the parent as printed.
Sequence of UniProt Q38829 (whole entry, looked up): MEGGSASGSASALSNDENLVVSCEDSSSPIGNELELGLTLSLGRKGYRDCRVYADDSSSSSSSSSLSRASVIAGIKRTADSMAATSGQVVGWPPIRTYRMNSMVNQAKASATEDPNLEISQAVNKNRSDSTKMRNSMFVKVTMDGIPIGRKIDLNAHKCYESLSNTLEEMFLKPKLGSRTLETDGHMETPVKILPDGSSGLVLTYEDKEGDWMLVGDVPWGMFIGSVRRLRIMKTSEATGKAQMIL
Sequence of UniProt P93022 (whole entry, looked up): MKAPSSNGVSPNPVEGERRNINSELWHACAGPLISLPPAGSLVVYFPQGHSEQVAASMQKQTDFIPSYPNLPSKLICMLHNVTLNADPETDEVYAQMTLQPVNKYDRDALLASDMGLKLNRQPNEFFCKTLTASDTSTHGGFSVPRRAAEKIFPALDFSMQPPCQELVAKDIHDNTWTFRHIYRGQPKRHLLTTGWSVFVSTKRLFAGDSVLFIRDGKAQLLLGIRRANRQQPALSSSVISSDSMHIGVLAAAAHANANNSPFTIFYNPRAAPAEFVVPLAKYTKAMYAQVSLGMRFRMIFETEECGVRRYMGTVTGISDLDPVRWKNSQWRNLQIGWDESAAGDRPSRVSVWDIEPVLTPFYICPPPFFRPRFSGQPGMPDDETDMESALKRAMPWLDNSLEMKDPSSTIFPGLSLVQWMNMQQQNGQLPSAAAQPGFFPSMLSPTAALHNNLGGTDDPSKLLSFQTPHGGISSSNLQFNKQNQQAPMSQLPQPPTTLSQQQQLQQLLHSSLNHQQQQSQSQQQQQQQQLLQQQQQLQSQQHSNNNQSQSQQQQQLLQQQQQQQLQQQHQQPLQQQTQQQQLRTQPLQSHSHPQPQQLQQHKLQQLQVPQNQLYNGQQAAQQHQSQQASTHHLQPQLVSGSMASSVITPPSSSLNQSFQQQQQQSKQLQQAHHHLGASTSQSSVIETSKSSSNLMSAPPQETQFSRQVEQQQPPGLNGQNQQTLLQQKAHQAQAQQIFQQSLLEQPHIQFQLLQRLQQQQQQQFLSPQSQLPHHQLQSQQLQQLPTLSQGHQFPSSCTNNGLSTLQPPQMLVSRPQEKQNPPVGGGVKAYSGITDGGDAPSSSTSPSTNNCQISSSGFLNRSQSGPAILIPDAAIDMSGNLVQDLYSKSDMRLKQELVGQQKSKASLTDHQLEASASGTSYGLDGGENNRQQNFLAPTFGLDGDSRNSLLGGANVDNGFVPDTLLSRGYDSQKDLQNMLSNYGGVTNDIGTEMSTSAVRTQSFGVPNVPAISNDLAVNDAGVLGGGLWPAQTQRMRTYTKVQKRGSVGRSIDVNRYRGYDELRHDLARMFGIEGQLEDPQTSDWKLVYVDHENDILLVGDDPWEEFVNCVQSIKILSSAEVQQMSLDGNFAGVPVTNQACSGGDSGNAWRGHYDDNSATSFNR
Sequence of UniProt Q9XFM0 (whole entry, looked up): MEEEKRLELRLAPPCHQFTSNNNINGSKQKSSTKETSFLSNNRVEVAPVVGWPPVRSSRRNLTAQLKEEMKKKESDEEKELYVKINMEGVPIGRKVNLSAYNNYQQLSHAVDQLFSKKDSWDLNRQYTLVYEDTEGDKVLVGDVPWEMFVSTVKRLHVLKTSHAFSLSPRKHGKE
Sequence of UniProt Q9ZPY6 (whole entry, looked up): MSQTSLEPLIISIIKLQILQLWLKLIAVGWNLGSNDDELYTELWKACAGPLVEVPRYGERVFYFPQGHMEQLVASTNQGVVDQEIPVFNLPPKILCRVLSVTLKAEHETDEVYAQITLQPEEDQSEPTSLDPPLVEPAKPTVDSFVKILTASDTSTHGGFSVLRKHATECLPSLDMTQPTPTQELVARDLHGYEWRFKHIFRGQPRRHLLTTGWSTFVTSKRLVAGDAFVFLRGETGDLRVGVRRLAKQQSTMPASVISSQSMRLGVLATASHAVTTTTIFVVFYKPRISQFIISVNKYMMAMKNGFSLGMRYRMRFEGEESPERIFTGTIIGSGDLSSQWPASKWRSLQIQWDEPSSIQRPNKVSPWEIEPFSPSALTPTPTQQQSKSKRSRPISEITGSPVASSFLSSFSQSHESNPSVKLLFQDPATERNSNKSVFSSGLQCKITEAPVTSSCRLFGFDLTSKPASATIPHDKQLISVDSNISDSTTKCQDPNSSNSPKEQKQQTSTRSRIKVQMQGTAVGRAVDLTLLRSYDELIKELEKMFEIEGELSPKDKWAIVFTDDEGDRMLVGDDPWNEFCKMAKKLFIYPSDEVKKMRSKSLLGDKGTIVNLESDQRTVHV
Sequence of UniProt Q9C5X0 (whole entry, looked up): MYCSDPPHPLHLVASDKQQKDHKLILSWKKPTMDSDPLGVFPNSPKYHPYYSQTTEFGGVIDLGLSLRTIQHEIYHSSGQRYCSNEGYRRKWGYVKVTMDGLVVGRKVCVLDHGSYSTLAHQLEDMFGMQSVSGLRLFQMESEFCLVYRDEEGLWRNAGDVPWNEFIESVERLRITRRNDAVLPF
Sequence of UniProt Q9C966 (whole entry, looked up): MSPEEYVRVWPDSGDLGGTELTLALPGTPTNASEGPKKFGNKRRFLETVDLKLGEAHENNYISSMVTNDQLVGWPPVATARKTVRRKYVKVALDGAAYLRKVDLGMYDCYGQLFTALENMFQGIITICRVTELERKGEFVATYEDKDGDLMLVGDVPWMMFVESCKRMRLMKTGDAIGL

Set 1 — method: RNA Bind-n-Seq; molecule type: RNA; sample: in vitro; tested at: 365 nM; baseline: no-protein control; reading: higher = stronger binding
Target: RNA binding protein fox-1 homolog 2, RRM domain, GST-SBP tag (RBFOX2, Homo sapiens, UniProt O43251-10, residues 100-194)
Setting: natural RNA segment, single round, ends assumed
Target sequence (chain): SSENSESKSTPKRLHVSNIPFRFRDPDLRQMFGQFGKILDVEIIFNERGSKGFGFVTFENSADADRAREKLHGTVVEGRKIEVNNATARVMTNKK
`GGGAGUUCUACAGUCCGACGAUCAGGUACAGACGACCUCGGGGCAGUGACGAGCAAAGACCAGAGACUGCUGAGCCCUCGCAUCUGGGUGGCGGAAUUGCCUGCGGGGUUUUGCCCUUGGUUUACUGAGGGGGUGGAAUUCUCGGGUGCCAA`: “RBNS enrichment (R)” 3.19.
`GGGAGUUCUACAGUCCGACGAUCAGCACAUGCUUUGUUUCAUGUUAUGGGUGAGGACCUACAUACACUCUUACUUUAGCAGUCACUUAACCUUCUCCAGCAAGGCAGUUGUGGGGUUCACUAGGAUUUAGUGCUGGAAUUCUCGGGUGCCAA`: “RBNS enrichment (R)” 0.353.
Under “RBNS enrichment (R)”, `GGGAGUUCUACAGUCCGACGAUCACUGGAAGGAGAGGUUCGCUCCCUCCUUAAGGACAUAAGUGAGAAAGUUGCGGUUUACAGCACCUGCUUAUAACAGGAAGGGGCUGUAGAGGGGCUCGGUGACCAAGGUAUGGAAUUCUCGGGUGCCAA` is recorded as 0.661.
`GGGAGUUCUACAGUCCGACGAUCUCUCCGAAAUGGUGUGAUCGUCUCCUCAUUGAGCAGCGGCUGCCACCGCGCUGUGGGUAGUGUGUGACCGUGGCUGUACUGUAUAGUGAACAUAGUUGGCAUAUCUUUGUUGGAAUUCUCGGGUGCCAA` — result for “RBNS enrichment (R)”: 0.611.
Under “RBNS enrichment (R)”, `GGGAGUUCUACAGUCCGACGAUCUGACCAUGCUCUGGGGACAGGGGUACCUUAGAUUCUCUGUCUAUUUUUCCUCUAGCAAGCCAGCUGUGCUGAAGCCCAGUAGAGAUGAAGAGACACCAGCCAGAGAAAACUGGAAUUCUCGGGUGCCAA` is recorded as 0.453.
For `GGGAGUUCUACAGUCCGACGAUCGCAGCCUUCCAGAGACUGAUCCUGGAGAUUGAGUUGAUUGUCUUGGCUAGACCUGUCAUUUUAAGCUCUAGUCAUAGCACUUUUUCAGAGCAUCUUAGGCACCAUUGCAAUGGAAUUCUCGGGUGCCAA`, “RBNS enrichment (R)” read 2.67.
Under “RBNS enrichment (R)”, `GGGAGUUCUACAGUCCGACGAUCAUUUUAUUUGAAUUGGAAUAUUGUUUUUCUAGAGGACAUUCAUAUCUGCACUAUUAUCUGAUGACAUGUUGGUAAUUUUAAAGACUGCAAGGCAGUUUAGAGAAUGAAGUUGGAAUUCUCGGGUGCCAA` is recorded as 0.833.
`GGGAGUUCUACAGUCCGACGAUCAAAAUGAAUGUAUUUCUGUUUUUGAAGAGAAUAAUUUUUUUCUCUAGGGAGAGGCGAGGUUACAGUGUUUAUAUUUUGGAACCUUCCUGAAGGUGUGAAAUUGUAAAUAUUGGAAUUCUCGGGUGCCAA`: “RBNS enrichment (R)” 1.68.
`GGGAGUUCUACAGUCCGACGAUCUAAUUCAGGAAUUUGAGUAGAGAUGGGGAACAAGAACCCAGAUGCUGUCCCCUCACCCCCUCUCCUGUAUUUCUCAGGUCCAGUUCAAAUCUAAAAUUCUACUUUUAGAGUGGAAUUCUCGGGUGCCAA` — result for “RBNS enrichment (R)”: 0.327.
Under “RBNS enrichment (R)”, `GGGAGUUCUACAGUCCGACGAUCUGUGCAUAUAUUCUGUGAUGGGAAACAUUGUUGAUGUCCUAACAGAAAUAUAUUUUGAUCUAUUUUCCUAUGGAGUUGUUUCUAUUAUGACCAUUUAAUUUUGUUUUUAUUGGAAUUCUCGGGUGCCAA` is recorded as 1.64.
`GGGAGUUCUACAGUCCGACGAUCAGAUGCAGAAUGGGAAAGACAGAGGUUAGCAGAGGAGCCGGACACAGAGGAAGCUCAGGCACAGAGGACGAGGAGCAAGCUGGCGCCGACAUGGCGAAGGCAAGGUCUUCUGGAAUUCUCGGGUGCCAA`: “RBNS enrichment (R)” 1.34.
Under “RBNS enrichment (R)”, `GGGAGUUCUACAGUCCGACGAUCGUGUGUCGGGCUUAUUAUUGUGACCAUCCUGCUGCUCCAGAGUGCCUUUCCAGGUUUCCUUUAGCUUCCCUGCUUCCUGGGAAUCAGGAGCCUGGACACUGCCAUCUCUAUGGAAUUCUCGGGUGCCAA` is recorded as 0.372.

Set 2 — method: DHFR PCA, deep sequencing; sample: yeast; with: (+)-ABA 0.032 µM; baseline: wild-type fitted maximum; reading: higher = stronger binding
Target: ABI1, truncated, D143A, DHFR fusion (Arabidopsis thaliana)
Setting: methotrexate growth selection, single substitutions
Starting sequence: PYL1, truncated, DHFR fusion (Arabidopsis thaliana); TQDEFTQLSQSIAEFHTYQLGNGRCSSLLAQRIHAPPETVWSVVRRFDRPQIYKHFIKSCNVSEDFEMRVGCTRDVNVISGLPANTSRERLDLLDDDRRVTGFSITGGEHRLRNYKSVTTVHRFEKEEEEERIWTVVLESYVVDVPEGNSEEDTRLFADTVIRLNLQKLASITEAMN; partner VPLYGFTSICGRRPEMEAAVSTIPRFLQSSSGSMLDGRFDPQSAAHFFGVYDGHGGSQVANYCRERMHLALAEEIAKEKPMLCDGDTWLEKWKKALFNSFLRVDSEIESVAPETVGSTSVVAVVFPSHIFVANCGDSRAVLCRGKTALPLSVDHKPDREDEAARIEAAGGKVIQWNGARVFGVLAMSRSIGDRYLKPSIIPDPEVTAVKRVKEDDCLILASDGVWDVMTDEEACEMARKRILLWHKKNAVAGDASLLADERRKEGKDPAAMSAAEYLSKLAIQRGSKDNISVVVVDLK
Under “relative binding score”, `S171I` is recorded as -2.48%.
For `H34N`, “relative binding score” read 39.8%.
`R45W`: “relative binding score” -1.68%.
`K168D` — result for “relative binding score”: 0.316%.
`H34K`: “relative binding score” 30.4%.
`T73Q` — result for “relative binding score”: 10.7%.
For `H55C`, “relative binding score” read 25.6%.
`Q19P`: “relative binding score” 45.8%.
`P146K` — result for “relative binding score”: -3.15%.
`T73Y`: “relative binding score” 50.7%.
`K54Q`: “relative binding score” 9.65%.
For `F66Y`, “relative binding score” read 3.69%.
For `I79C`, “relative binding score” read 35.1%.
`I79G` — result for “relative binding score”: 0.405%.
Under “relative binding score”, `I172H` is recorded as -3.19%.
Under “relative binding score”, `E129Q` is recorded as 24.5%.
`G71T` — result for “relative binding score”: -2.03%.
`D48Q`: “relative binding score” -7.41%.
Under “relative binding score”, `Q2R` is recorded as 25.1%.
For `S63C`, “relative binding score” read 26.3%.

Set 3 — Sequence: B1 (IAA1); method: two-hybrid; reading: higher = firmer interaction
T1: itself; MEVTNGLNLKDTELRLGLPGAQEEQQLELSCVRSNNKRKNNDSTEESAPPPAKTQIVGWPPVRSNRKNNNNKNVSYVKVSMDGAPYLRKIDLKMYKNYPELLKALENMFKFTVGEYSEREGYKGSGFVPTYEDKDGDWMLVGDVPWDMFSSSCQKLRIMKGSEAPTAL
B1: IAA1 (Arabidopsis thaliana, UniProt P49677); chain MEVTNGLNLKDTELRLGLPGAQEEQQLELSCVRSNNKRKNNDSTEESAPPPAKTQIVGWPPVRSNRKNNNNKNVSYVKVSMDGAPYLRKIDLKMYKNYPELLKALENMFKFTVGEYSEREGYKGSGFVPTYEDKDGDWMLVGDVPWDMFSSSCQKLRIMKGSEAPTAL
It gave 1 for positive tests (ARF11 500-622 (Arabidopsis thaliana, UniProt Q9ZPY6); baseline: out of 4 tests).
For ARF7 1030-1164 (Arabidopsis thaliana, UniProt P93022); baseline: out of 4 tests: positive tests read 3.
The positive tests was 0 (IAA11 (Arabidopsis thaliana, UniProt Q38829); weak activation fusion; baseline: out of 2 tests).
It gave 4 for positive tests (IAA28 (Arabidopsis thaliana, UniProt Q9XFM0); baseline: out of 4 tests).
T1, itself; baseline: out of 4 tests — positive tests: 2.
It gave 2 for positive tests (IAA9 (Arabidopsis thaliana, UniProt Q38827); baseline: out of 2 tests).
It gave 4 for positive tests (IAA3 (Arabidopsis thaliana, UniProt Q38822); baseline: out of 4 tests).
The positive tests was 2 (IAA15 (Arabidopsis thaliana, UniProt Q9C966); baseline: out of 4 tests).
It gave 4 for positive tests (IAA34 (Arabidopsis thaliana, UniProt Q9C5X0); baseline: out of 4 tests).

Set 4 — target: CCNA2, cyclin fold, Cln2 fusion (human); method: yeast growth competition, sequencing; sample: yeast; setting: strong parent motif; baseline: not given; reading: higher = stronger binding
Starting sequence: MICAL3 docking peptide (human); LQLRRQLSFSEDS
Under “normalised enrichment score”, `S8D` is recorded as 4.47.
`R4A`: “normalised enrichment score” 2.52.
For `L7G`, “normalised enrichment score” read -0.254.
Under “normalised enrichment score”, `Q6T` is recorded as 2.11.
`L3T` — result for “normalised enrichment score”: 5.63.
`E11N` — result for “normalised enrichment score”: 3.32.
`S10Q` — result for “normalised enrichment score”: 2.15.
`Q2I`: “normalised enrichment score” 2.55.
Under “normalised enrichment score”, `L3Y` is recorded as 3.62.
For `S8M`, “normalised enrichment score” read 3.2.
`E11P` — result for “normalised enrichment score”: 2.43.
`S8Q` — result for “normalised enrichment score”: 3.41.
Under “normalised enrichment score”, `D12N` is recorded as 3.5.
`L3Q` — result for “normalised enrichment score”: 0.495.
Under “normalised enrichment score”, `E11Q` is recorded as 3.1.
Under “normalised enrichment score”, `S8K` is recorded as 3.85.

For quick reference, copied from above (set 4):
`R4A`: “normalised enrichment score” 2.52.
For `L7G`, “normalised enrichment score” read -0.254.
Under “normalised enrichment score”, `Q6T` is recorded as 2.11.
`L3T` — result for “normalised enrichment score”: 5.63.
`E11N` — result for “normalised enrichment score”: 3.32.
`S10Q` — result for “normalised enrichment score”: 2.15.
